Published values collected from several papers.
Every numbered part comes from another study and shows a few of its results, in no order.
Sequence of UniProt Q04912 (whole entry, looked up): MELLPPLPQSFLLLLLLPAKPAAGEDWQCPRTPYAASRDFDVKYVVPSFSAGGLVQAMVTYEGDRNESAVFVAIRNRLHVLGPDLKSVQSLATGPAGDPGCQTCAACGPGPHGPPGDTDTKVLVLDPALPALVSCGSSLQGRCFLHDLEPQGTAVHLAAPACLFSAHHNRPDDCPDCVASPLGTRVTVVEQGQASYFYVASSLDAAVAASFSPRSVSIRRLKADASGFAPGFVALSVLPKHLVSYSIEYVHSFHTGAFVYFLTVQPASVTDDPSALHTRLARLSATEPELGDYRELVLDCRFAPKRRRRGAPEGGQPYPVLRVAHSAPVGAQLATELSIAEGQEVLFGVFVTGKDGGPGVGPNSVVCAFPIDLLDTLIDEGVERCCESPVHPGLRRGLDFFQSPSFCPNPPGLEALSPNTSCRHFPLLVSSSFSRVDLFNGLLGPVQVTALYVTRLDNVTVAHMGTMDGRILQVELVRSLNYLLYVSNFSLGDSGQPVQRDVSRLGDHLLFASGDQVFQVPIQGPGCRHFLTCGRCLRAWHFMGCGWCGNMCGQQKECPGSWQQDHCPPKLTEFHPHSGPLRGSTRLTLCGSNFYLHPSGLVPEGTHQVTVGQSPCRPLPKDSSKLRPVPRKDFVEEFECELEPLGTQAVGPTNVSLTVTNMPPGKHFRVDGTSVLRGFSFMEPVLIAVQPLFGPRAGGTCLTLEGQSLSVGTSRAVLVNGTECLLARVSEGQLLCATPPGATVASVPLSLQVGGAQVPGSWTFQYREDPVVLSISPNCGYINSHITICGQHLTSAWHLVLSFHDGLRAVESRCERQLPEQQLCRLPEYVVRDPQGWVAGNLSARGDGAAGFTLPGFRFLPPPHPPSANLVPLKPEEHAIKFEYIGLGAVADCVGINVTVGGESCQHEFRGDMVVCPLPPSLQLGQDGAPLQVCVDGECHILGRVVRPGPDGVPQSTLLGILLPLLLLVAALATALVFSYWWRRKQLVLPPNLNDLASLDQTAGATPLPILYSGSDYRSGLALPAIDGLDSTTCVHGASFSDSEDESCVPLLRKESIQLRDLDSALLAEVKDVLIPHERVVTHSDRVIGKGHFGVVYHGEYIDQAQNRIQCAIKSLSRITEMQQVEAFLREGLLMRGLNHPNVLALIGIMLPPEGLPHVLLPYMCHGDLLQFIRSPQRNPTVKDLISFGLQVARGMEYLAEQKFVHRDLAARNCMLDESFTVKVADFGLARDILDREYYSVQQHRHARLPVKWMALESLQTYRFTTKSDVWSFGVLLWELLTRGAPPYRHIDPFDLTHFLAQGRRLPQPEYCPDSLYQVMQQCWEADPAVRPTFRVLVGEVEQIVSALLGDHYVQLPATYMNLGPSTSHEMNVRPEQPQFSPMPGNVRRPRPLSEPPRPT
Sequence of UniProt Q07002 (whole entry, looked up): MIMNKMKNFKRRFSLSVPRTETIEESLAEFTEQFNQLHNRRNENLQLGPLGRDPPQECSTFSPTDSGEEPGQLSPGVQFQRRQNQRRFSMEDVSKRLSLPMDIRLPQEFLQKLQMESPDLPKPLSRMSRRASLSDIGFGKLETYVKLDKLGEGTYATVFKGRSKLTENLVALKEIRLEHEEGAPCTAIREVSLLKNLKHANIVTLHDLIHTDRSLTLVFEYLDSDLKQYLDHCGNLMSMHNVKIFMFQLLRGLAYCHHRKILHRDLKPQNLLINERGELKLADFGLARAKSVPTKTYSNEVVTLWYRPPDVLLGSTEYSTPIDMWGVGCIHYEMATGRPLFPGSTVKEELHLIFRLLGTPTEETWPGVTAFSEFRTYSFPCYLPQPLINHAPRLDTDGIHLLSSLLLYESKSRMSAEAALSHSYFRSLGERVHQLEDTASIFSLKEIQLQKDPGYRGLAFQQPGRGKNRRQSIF
Sequence of UniProt Q9H093 (whole entry, looked up): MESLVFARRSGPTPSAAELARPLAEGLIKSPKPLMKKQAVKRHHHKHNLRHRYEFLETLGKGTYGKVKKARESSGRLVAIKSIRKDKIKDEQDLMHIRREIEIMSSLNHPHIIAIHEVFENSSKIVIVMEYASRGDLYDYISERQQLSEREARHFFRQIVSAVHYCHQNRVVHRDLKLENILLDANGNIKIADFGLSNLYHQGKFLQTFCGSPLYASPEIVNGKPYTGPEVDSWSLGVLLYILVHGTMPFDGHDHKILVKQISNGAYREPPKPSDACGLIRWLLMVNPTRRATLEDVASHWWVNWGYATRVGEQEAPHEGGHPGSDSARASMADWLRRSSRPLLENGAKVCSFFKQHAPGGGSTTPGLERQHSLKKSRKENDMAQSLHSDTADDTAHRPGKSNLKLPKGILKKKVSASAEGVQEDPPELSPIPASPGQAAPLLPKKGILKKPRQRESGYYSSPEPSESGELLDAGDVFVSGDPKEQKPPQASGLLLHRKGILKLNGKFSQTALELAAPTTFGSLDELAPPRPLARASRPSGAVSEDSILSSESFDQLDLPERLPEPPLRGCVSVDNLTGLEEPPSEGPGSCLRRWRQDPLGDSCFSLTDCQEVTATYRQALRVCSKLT
Sequence of UniProt P07332 (whole entry, looked up): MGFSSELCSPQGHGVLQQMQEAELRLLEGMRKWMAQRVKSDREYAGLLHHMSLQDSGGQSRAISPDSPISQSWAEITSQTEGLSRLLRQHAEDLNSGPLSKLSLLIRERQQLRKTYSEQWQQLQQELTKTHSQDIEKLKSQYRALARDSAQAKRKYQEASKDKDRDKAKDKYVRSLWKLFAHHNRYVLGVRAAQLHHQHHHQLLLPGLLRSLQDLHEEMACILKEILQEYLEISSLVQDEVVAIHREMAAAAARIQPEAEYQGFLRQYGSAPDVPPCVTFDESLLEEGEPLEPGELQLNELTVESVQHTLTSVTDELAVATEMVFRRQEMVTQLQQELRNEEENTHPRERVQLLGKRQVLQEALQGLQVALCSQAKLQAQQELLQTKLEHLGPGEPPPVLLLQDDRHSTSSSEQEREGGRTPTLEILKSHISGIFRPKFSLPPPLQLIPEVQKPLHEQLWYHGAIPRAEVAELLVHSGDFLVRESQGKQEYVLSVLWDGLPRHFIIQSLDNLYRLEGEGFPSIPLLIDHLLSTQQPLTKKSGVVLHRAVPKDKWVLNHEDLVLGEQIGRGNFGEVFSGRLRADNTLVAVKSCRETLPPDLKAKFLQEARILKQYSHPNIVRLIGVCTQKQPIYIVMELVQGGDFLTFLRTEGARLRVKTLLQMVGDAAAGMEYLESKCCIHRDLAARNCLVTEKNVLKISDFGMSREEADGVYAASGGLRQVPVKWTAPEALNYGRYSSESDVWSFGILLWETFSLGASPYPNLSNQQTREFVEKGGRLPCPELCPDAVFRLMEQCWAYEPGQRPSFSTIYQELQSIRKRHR

Set 1 — effect on: enzyme activity; mode: inhibitor; tested at: 10 µM
Target: Calcium/calmodulin-dependent protein kinase type II subunit alpha (CAMK2A, Homo sapiens, UniProt Q9UQM7)
Sequence of UniProt Q9UQM7 (whole entry, looked up): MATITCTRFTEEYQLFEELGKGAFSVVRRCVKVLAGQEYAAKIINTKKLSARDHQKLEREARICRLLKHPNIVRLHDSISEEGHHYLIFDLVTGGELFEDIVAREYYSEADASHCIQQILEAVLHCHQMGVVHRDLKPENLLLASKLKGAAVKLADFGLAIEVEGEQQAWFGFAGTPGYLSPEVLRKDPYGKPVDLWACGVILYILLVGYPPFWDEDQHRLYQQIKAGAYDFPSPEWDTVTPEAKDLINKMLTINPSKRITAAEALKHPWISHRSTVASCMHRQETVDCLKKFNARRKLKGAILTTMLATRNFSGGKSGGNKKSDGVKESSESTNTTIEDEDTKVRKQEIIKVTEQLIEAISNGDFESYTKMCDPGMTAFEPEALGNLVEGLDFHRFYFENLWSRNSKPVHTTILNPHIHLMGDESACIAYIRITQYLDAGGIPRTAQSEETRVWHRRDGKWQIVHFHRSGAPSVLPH
| SMILES | inhibition [%] |
| --- | --- |
| CC(C)C(=O)Nc1ccc([N+](=O)[O-])c(C(F)(F)F)c1 | -3 |
| CC(C)c1c(O)cc(/C=C/c2ccccc2)cc1O | -7 |
| Nc1ccc(S(=O)(=O)c2ccc(N)cc2)cc1 | -10 |
| COc1cc(CCC(O)CC(O)CCc2ccc(O)c(OC)c2)ccc1O (centres unmarked) | -2 |
| CC(=O)N(CC(O)CO)c1c(I)c(C(=O)NCC(O)CO)c(I)c(C(=O)NCC(O)CO)c1I (mixture of isomers) | -7 |
| C=C(C)[C@H](CC=C(C)C)Cc1c(O)cc(O)c2c1O[C@H](c1ccccc1O)CC2=O | 5 |
| Cc1oc(=O)oc1COC(=O)[C@@H]1N2C(=O)[C@@H](NC(=O)[C@H](N)c3ccccc3)[C@H]2SC1(C)C | -6 |
| CC(C)(C)c1cc(-c2cc(-c3ccc(C(=O)O)cc3)ccc2OCCO)ccc1N1CCCC1 | -4 |
| O=C(CO)CO | -4 |
| CC(C)NCC(O)c1cc(O)cc(O)c1 (centres unmarked) | -8 |
| Cc1cc(O)c(C(=O)CCC(C)C)c(=O)o1 | -16 |
| COc1ccc(-c2oc3cc(OC)c(OC)c(O)c3c(=O)c2OC)cc1O | 5 |
| CC(C)[C@@H](C)/C=C/[C@@H](C)[C@H]1CC[C@H]2C3=CC=C4C[C@@H](O)CC[C@]4(C)[C@H]3CC[C@]12C | 33 |

Set 2 — tested at: 1 µM
Compound: COc1ccc2[nH]c3c4[nH]c5ccc(OC)cc5c4c4c(c3c2c1)C(=O)NC4=O
| target | assay | conditions | scale | remaining binding |
| --- | --- | --- | --- | --- |
| TTK (Homo sapiens, UniProt P33981) | competitive binding panel | – | baseline: vehicle | 50% |
| RIOK1 (Homo sapiens, UniProt Q9BRS2) | competitive binding panel | – | baseline: vehicle | 58% |
| LRRK2 (Homo sapiens, UniProt Q5S007) | competitive binding panel | – | baseline: vehicle | 2.8% |
| DAPK2 (Homo sapiens, UniProt Q9UIK4) | competitive binding panel | – | baseline: vehicle | 4.9% |
| RPS6KA5 (Homo sapiens, UniProt O75582) | competitive binding scan | N-terminal kinase domain 1 | – | 53% |
| TNK2 (Homo sapiens, UniProt Q07912) | competitive binding panel | – | baseline: vehicle | 69% |
| CAMKK1 (Homo sapiens, UniProt Q8N5S9) | competitive binding panel | – | baseline: vehicle | 78% |
| ROCK1 (Homo sapiens, UniProt Q13464) | competitive binding panel | – | baseline: vehicle | 72% |
| CDK18 (Homo sapiens, UniProt Q07002) | competitive binding panel, item: PCTK3 | – | baseline: vehicle | 80% |
| JAK1 (Homo sapiens, UniProt P23458) | competitive binding panel | – | baseline: vehicle | 39% |
| PIK3CA (Homo sapiens, UniProt P42336, Q546K) | competitive binding panel | – | baseline: vehicle | 91% |
| EIF2AK1 (Homo sapiens, UniProt Q9BQI3) | competitive binding panel | – | baseline: vehicle | 86% |

Set 3 — effect on: enzyme activity; mode: inhibitor; tested at: 0.5 µM; baseline: control
Target: Mitogen-activated protein kinase kinase kinase 9 (MAP3K9, Homo sapiens, UniProt P80192)
Sequence of UniProt P80192 (whole entry, looked up): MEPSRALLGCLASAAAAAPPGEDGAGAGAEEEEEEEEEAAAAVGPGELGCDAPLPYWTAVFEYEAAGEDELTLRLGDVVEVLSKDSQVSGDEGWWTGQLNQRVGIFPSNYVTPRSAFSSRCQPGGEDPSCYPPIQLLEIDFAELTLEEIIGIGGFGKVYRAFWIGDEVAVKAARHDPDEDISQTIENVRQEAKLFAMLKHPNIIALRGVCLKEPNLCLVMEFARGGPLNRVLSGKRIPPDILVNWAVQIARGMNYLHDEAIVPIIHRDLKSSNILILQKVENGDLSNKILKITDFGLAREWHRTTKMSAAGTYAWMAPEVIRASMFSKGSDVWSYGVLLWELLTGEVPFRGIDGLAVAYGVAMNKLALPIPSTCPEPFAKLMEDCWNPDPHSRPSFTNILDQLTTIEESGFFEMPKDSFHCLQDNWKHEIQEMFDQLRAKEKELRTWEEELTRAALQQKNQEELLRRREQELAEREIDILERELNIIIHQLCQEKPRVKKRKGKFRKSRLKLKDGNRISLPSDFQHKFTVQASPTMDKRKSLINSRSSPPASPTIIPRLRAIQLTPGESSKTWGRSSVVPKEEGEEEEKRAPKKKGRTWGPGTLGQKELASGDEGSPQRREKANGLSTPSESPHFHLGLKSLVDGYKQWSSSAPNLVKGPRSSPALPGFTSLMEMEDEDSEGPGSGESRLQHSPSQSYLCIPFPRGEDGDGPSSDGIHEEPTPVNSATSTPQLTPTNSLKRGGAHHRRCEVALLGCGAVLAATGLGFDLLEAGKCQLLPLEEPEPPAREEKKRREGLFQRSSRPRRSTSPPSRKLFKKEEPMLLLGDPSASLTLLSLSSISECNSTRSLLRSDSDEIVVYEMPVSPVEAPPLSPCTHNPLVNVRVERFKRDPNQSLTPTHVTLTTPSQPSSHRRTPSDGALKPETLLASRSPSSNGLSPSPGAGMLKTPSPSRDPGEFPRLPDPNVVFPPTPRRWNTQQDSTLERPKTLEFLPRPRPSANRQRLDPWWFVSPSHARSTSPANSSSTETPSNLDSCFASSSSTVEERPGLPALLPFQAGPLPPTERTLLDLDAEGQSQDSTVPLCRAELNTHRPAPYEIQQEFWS
| SMILES | remaining activity |
| --- | --- |
| Ic1cccc(CSc2nnc(-c3ccncc3)o2)c1 | 108% |
| N#C/C(=C\c1ccc(O)c(O)c1)C(=O)NCc1ccccc1 | 95.5% |
| CN(C)C[C@H]1CCn2c(c(C3=C(c4cn(C)c5ccccc45)C(=O)NC3=O)c3ccccc32)C1 | 90.8% |
| CCOc1nc(NC(=O)Cc2cc(OC)ccc2OC)cc(N)c1C#N | 103% |
| COc1cc2ncnc(Nc3ccc(O)c(Br)c3)c2cc1OC | 80.1% |
| Cc1cn(-c2cc(NC(=O)c3ccc(C)c(Nc4nccc(-c5cccnc5)n4)c3)cc(C(F)(F)F)c2)cn1 | 112% |
| Cc1cc2ncc(-c3ccccc3)nc2cc1C | 92.6% |
| Cn1nc2c3c(cccc31)C(=O)c1ccccc1-2 | 99.4% |
| CCN(CC)CCNC(=O)c1c(C)[nH]c(/C=C2\C(=O)Nc3ccc(Cl)cc32)c1C | 49.6% |
| N#Cc1c(NC(=O)c2cccc3ccccc23)sc2c1CCCC2 | 99.5% |
| O=C(NC(NC(=S)Nc1ccc(F)c([N+](=O)[O-])c1)C(Cl)(Cl)Cl)C(c1ccccc1)c1ccccc1 (centres unmarked) | 94% |
| c1ccc(-c2cnc(Nc3ccc(OCCN4CCCC4)cc3)s2)cc1 | 94.3% |
| O=C1c2ccccc2-c2n[nH]c3cccc1c23 | 33.6% |
| Nc1cccc(-c2cc3c(Oc4cccc(O)c4)ncnc3[nH]2)c1 | 16.2% |
| CCN(CC)C(=O)c1ccc(Nc2nc(OCC3CCCCC3)c3[nH]cnc3n2)cc1 | 3.8% |
| COc1cc2c(cc1OC)-c1[nH]nc(Nc3cccc(F)c3)c1C2 | 90% |
| O=c1cc(-c2cccc3c2Sc2ccccc2S3)oc(N2CCOCC2)c1 | 95.5% |
| C[C@@H]1CCN(C(=O)CC#N)C[C@@H]1N(C)c1ncnc2[nH]ccc12 | 113% |
| c1ccc(-c2[nH]ncc2-c2ccnc3ccccc23)nc1 | 90.4% |
| Cc1nc2cc3nc(-c4cccs4)cnc3cc2n1C | 90.3% |
| O=C1C(Cl)=C(N2C(=O)CCC2=O)C(=O)c2ccccc21 | 106% |
| COc1cc2ncnc(Nc3cccc(Cl)c3)c2cc1OC | 82.8% |
| CN([C@@H](Cc1ccc(OS(=O)(=O)c2cccc3cnccc23)cc1)C(=O)N1CCN(c2ccccc2)CC1)S(=O)(=O)c1cccc2cnccc12 | 104% |
| O=C(Nc1cccc(Nc2nccc(Nc3cccc(C(F)(F)F)c3)n2)c1)C1CC1 | 95.2% |

Set 4 — method: competition with immobilised ligand
SMILES: O=C(NCCCC1CCCCC1)c1ccc(CNC(=O)c2cnn(-c3ccccc3)c2C(F)(F)F)cc1
| target | assay | conditions | remaining binding |
| --- | --- | --- | --- |
| MST1R (Homo sapiens, UniProt Q04912) | cell-free assay | 0.1 µM | 100% |
| PRKX (Homo sapiens, UniProt P51817) | cell-free assay | 0.1 µM | 100% |
| DCLK2 (Homo sapiens, UniProt Q8N568) | cell-free assay | 0.1 µM | 100% |
| PIK3C2G (Homo sapiens, UniProt O75747) | cell-free assay | 0.1 µM | 100% |
| MAP2K6 (Homo sapiens, UniProt P52564) | cell-free assay | 0.1 µM | 79% |
| GSK3B (Homo sapiens, UniProt P49841) | cell-free assay | 0.1 µM | 100% |
| CDK2 (Homo sapiens, UniProt P24941) | cell-free assay | 0.1 µM | 96% |
| STK38L (Homo sapiens, UniProt Q9Y2H1) | binding | 1 µM | 20% |
| TAOK3 (Homo sapiens, UniProt Q9H2K8) | cell-free assay | 0.1 µM | 99% |
| SRPK2 (Homo sapiens, UniProt P78362) | cell-free assay | 0.1 µM | 100% |
| TEC (Homo sapiens, UniProt P42680) | cell-free assay | 0.1 µM | 94% |
| DCLK3 (Homo sapiens, UniProt Q9C098) | cell-free assay | 0.1 µM | 100% |
| PIP4K2B (Homo sapiens, UniProt P78356) | cell-free assay | 0.1 µM | 96% |
| MAPK7 (Homo sapiens, UniProt Q13164) | cell-free assay | 0.1 µM | 100% |
| CDK5 (Homo sapiens, UniProt Q00535) | cell-free assay | 0.1 µM | 88% |
| EPHA5 (Homo sapiens, UniProt P54756) | cell-free assay | 0.1 µM | 92% |
| ACVR1B (Homo sapiens, UniProt P36896) | cell-free assay | 0.1 µM | 100% |
| STK3 (Homo sapiens, UniProt Q13188) | cell-free assay | 0.1 µM | 100% |
| KIT (Homo sapiens, UniProt P10721, T670I/V559D) | cell-free assay | 0.1 µM | 100% |
| MAP2K4 (Homo sapiens, UniProt P45985) | cell-free assay | 0.1 µM | 100% |
| TAOK1 (Homo sapiens, UniProt Q7L7X3) | cell-free assay | 0.1 µM | 96% |
| EPHA6 (Homo sapiens, UniProt Q9UF33) | cell-free assay | 0.1 µM | 88% |
| CDC42BPB (Homo sapiens, UniProt Q9Y5S2) | cell-free assay | 0.1 µM | 100% |
| NUAK2 (Homo sapiens, UniProt Q9H093) | cell-free assay | 0.1 µM | 100% |
| FES (Homo sapiens, UniProt P07332) | cell-free assay | 0.1 µM | 100% |

Excerpt of the above (set 4):
| target | assay | conditions | remaining binding |
| --- | --- | --- | --- |
| PIP4K2B (Homo sapiens, UniProt P78356) | cell-free assay | 0.1 µM | 96% |
| MAPK7 (Homo sapiens, UniProt Q13164) | cell-free assay | 0.1 µM | 100% |
| CDK5 (Homo sapiens, UniProt Q00535) | cell-free assay | 0.1 µM | 88% |
| EPHA5 (Homo sapiens, UniProt P54756) | cell-free assay | 0.1 µM | 92% |
| ACVR1B (Homo sapiens, UniProt P36896) | cell-free assay | 0.1 µM | 100% |
| STK3 (Homo sapiens, UniProt Q13188) | cell-free assay | 0.1 µM | 100% |
| KIT (Homo sapiens, UniProt P10721, T670I/V559D) | cell-free assay | 0.1 µM | 100% |
| MAP2K4 (Homo sapiens, UniProt P45985) | cell-free assay | 0.1 µM | 100% |
| TAOK1 (Homo sapiens, UniProt Q7L7X3) | cell-free assay | 0.1 µM | 96% |
| EPHA6 (Homo sapiens, UniProt Q9UF33) | cell-free assay | 0.1 µM | 88% |
